Published values gathered from unrelated publications.
Lines come from different studies, so protocols differ. “And” joins repeats or separate records; there may be more than shown. ± marks the error that the study gave.
PFF0160c E182D: Dihydroorotate dehydrogenase (quinone), mitochondrial (PFF0160c, Plasmodium falciparum, UniProt Q08210, E182D)
ACHE: Acetylcholinesterase (ACHE, Homo sapiens, UniProt P22303)
Sequence of UniProt P22303 (whole entry, looked up): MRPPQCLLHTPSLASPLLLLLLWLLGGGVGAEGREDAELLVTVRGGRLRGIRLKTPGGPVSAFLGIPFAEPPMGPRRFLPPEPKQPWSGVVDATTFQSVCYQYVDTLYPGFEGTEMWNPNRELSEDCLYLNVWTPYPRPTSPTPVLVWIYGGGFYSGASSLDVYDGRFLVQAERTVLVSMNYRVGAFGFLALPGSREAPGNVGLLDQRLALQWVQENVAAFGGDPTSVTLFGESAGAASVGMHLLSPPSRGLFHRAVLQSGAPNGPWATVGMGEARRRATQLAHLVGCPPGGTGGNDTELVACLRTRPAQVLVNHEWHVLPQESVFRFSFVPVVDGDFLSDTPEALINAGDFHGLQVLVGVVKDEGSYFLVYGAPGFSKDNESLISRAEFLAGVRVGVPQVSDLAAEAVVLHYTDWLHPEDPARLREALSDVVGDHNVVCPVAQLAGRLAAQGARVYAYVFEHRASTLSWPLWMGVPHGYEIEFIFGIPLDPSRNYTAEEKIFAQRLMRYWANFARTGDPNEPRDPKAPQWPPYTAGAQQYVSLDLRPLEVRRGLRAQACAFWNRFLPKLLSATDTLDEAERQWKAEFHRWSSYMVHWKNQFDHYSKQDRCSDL
Sequence of UniProt P32245 (whole entry, looked up): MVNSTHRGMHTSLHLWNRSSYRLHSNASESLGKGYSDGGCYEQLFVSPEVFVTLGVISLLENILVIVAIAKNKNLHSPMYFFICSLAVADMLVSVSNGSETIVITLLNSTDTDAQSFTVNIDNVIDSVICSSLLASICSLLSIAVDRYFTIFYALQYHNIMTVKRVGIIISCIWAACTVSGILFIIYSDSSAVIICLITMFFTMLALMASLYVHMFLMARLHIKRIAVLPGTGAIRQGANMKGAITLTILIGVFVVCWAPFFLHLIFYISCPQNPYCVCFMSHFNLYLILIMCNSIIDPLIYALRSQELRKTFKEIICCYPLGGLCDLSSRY
Sequence of UniProt P36544 (whole entry, looked up): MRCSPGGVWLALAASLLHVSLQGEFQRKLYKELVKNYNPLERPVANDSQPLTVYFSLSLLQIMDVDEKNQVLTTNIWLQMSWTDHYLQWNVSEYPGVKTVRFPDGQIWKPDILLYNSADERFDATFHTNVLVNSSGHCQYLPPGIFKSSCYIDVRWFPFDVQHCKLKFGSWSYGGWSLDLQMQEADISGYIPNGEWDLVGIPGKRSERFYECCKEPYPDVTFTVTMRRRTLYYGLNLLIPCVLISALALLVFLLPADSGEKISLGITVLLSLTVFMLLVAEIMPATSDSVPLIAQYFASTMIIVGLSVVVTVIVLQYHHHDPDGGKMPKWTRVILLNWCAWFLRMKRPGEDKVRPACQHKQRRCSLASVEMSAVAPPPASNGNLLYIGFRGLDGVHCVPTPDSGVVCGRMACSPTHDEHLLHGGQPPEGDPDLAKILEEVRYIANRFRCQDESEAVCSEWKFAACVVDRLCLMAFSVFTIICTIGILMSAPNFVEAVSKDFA
Sequence of UniProt Q8TF76 (whole entry, looked up): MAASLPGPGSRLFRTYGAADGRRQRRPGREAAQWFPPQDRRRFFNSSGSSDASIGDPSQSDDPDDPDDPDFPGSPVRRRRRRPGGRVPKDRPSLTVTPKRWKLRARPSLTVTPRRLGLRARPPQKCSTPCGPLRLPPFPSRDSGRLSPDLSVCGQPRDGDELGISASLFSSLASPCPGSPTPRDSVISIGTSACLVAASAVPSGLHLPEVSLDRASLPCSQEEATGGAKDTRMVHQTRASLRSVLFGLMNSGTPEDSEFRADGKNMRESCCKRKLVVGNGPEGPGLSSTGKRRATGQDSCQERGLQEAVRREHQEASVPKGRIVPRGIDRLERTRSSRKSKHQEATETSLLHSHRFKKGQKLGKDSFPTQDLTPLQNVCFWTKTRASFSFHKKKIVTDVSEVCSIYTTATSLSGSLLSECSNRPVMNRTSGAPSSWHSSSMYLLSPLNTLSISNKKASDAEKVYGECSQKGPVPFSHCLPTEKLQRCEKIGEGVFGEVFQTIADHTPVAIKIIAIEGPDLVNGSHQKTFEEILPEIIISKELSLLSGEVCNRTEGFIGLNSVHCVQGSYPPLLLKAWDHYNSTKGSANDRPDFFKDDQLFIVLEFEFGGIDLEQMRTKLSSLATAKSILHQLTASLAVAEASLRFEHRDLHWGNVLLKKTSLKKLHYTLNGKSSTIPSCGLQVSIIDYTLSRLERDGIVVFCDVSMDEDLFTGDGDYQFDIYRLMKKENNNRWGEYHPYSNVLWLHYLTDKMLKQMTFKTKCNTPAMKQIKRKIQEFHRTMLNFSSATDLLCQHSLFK
Sequence of UniProt P43088 (whole entry, looked up): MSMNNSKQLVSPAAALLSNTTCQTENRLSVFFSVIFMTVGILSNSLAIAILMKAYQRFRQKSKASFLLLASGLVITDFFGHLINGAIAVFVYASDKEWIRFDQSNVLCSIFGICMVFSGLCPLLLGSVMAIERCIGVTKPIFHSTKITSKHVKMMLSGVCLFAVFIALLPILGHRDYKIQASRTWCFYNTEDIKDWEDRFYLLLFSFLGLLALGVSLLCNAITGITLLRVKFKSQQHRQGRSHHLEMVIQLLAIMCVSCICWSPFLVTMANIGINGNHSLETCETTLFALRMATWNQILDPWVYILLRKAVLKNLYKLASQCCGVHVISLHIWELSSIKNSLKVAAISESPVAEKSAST
Sequence of UniProt P49116 (whole entry, looked up): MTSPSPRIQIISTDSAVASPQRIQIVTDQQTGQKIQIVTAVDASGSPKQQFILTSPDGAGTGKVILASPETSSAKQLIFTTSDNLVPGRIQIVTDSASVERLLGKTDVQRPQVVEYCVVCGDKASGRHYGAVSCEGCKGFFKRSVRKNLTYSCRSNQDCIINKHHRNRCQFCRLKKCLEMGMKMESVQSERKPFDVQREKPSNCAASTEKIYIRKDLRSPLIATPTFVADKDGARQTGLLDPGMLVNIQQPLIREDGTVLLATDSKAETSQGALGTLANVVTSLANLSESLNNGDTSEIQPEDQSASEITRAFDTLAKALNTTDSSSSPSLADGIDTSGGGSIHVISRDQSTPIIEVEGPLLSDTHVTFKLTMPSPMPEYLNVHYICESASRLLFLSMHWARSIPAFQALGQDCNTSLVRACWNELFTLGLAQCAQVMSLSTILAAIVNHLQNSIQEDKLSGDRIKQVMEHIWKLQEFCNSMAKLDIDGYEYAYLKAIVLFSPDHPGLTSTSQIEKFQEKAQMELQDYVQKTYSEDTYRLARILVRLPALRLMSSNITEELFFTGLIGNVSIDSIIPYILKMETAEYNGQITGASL
Sequence of UniProt P10721 (whole entry, looked up): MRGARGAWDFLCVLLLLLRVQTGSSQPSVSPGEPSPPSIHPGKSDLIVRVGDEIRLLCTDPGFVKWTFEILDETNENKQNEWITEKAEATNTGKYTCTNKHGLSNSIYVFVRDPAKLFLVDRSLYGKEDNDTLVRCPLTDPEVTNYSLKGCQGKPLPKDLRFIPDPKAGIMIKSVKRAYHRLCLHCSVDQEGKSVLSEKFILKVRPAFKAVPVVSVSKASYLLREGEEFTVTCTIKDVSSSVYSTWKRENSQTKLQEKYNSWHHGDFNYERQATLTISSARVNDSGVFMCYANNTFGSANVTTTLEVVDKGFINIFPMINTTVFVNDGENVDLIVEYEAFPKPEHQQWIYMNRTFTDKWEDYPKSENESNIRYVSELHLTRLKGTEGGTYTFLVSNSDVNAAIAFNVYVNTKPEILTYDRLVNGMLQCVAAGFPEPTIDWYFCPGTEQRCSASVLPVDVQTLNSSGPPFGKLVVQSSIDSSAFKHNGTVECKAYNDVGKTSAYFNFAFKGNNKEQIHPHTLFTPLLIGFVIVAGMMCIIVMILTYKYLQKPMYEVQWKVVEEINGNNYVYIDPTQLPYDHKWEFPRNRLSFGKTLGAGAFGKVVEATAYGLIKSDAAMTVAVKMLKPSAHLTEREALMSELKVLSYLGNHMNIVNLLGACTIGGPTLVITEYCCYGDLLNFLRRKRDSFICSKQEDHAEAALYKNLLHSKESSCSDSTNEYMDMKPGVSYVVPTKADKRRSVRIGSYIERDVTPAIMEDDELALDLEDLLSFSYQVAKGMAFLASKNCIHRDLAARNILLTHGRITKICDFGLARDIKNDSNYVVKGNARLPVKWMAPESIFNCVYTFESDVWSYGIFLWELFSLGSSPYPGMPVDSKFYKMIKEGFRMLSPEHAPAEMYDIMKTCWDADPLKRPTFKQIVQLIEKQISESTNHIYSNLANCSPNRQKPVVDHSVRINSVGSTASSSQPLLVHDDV
Sequence of UniProt Q15046 (whole entry, looked up): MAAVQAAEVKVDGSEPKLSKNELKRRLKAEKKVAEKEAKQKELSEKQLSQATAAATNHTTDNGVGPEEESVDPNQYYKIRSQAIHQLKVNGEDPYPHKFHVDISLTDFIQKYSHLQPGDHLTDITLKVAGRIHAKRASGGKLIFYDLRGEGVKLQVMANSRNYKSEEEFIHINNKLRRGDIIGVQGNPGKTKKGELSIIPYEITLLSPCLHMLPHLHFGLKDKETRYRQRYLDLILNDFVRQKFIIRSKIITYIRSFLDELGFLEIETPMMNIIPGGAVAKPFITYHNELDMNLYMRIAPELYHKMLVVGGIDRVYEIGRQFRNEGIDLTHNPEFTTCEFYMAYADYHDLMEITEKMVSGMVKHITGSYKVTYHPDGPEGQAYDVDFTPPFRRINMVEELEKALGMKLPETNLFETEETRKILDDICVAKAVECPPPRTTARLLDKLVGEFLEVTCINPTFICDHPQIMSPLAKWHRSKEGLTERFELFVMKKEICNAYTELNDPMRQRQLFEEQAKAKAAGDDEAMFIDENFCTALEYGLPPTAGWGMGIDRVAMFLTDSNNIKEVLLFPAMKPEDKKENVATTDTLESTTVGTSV
Sequence of UniProt P00942 (whole entry, unmodified, looked up): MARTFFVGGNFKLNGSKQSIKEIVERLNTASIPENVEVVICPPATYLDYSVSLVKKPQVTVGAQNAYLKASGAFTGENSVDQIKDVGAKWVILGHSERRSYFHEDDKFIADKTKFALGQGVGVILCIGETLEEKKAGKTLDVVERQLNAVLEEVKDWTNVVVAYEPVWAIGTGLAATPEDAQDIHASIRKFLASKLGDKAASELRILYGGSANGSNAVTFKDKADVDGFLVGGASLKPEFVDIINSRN

Structure (SMILES)	target	test	system	setting	how to read	quantity	value
NC(=O)c1ccc[n+]([C@@H]2O[C@H](COP(=O)(O)OP(=O)(O)OC[C@H]3O[C@@H](n4cnc5c(N)ncnc54)[C@H](O)[C@@H]3O)[C@@H](O)[C@H]2O)c1	ALDH-137	substrate	–	–	–	Km	28 ± 6 µM
C[C@@H]1CN(c2ccc(O)c(NS(=O)(=O)c3ccc(-c4ccco4)cc3)c2)C[C@H](C)N1.Cl	PFF0160c E182D	enzyme activity, DCIP colorimetric	–	–	relative to: E182D mutant over wild type	IC50 ratio	0.7
C[N+](C)(C)[C@@H](Cc1c[nH]c(=S)[nH]1)C(=O)[O-]	Ergothioneine transport permease/ergothioneine binding protein EgtU, substrate-binding domain (egtU, Helicobacter pylori, UniProt B5Z7I3, S297F)	ITC	–	30 °C, substrate-binding domain	–	ΔS	22.6 ± 2.3 cal/mol/K
Nc1c2c(nc3sc4c(c13)CCCC4)CCCC2	Glideosome-associated protein 50 (GAP50, Plasmodium falciparum, UniProt Q8I2X3)	binding, surface plasmon resonance	–	1:1 binding model	–	kon	47700 M⁻¹ s⁻¹
O=P1(NCCCl)OCCCN1CCCl (stereo not shown)	Nuclear receptor subfamily 2 group C member 2, ligand-binding domain (Homo sapiens, UniProt P49116)	SPR imaging	–	600 nM	–	koff	5.48e-06 s⁻¹
O=C(Nc1cnccc1Cl)N1CCN(Cc2ccc3c(c2)OC(F)(F)O3)CC1	Melanocortin receptor 4 (MC4R, Homo sapiens, UniProt P32245)	radioligand binding	–	concentration not given	–	inhibition	12% and 17%
COc1cc(Nc2ncc(F)c(Nc3ccc4c(n3)NC(=O)C(C)(C)O4)n2)cc(OC)c1OC	Misshapen-like kinase 1 (MINK1, Homo sapiens, UniProt Q8N4C8)	KINOMEscan	–	10 µM, MINK	–	inhibition	72%
Cl.Cl.O=c1cc(NCCCNCc2sc(Br)c(Br)c2Br)[nH]c2ccccc12	PFF0160c E182D	enzyme activity, DCIP colorimetric	–	–	relative to: E182D mutant over wild type	IC50 ratio	4.1
CC(C)[N+](C)(C)CC(O)COc1cccc2ccccc12 (stereo not shown)	ACHE	–	biochemical	concentration not given	–	activity class	inactive
CC[C@@H](C)[C@@H](NC(=O)[C@@H](Cc1ccc(O)cc1)NC(=O)[C@H]1CCCN1C(=O)[C@@H](CCCNC(=N)N)NC(=O)[C@H](N)Cc1c[nH]cn1)C(=O)N[C@H](C)C(=O)N[C@H](Cc1c[nH]cn1)C(=O)N[C@H](CCCNC(=N)N)C(=O)N[C@H](CCCCNC(=O)c1cccc(S(=O)(=O)F)c1)C(=O)N[C@H](Cc1ccc(O)cc1)C(=O)N[C@H](CO)C(=O)N[C@H](Cc1ccccc1)C(N)=O	Transferrin receptor protein 1 (Tfrc, Mus musculus, UniProt Q62351)	flow cytometry	DC2.4	48 h, pH 6, replicate 2, unit not given	relative to: 0 h	surface TFRC expression	0.736
CC1(C)CN(CCCCC(=O)N[C@H](Cc2ccc(O)c(I)c2)C(=O)N[C@H](Cc2ccccc2)C(=O)N[C@H](CCCCNC(=O)CCCCCCC(=O)NCCCC[C@H](NC(=O)N[C@@H](CCC(=O)O)C(=O)O)C(=O)O)C(=O)O)CC[N]2CC(C)(C)[S][Tc]2(=[O])[S]1 (stereo partly shown) [technetium-99m labelled]	Glutamate carboxypeptidase 2 (FOLH1, Homo sapiens, UniProt Q04609)	radioligand, saturation binding	LNCaP	1 h, 37 °C, added: [99mTc]TcO-6	–	Bmax	10.4 ± 6.2 pmol/mg
CC12CCC(CC1)C(C)(C)O2	1,8-cineole 2-endo-monooxygenase (cinA, Citrobacter braakii, UniProt Q8VQF6, Y81F)	NADPH consumption, substrate	–	200 µM, pH 7.8, room temperature, Y81F variant, 50 mM Tris, added: Fpr and Cdx	–	kcat	2.77 ± 0.152 s⁻¹
N[C@H](C(=O)O)c1cc(=O)[nH]o1	uncharacterized protein (Ixodes scapularis, UniProt A0A0N9E2I2)	agonist, two-electrode voltage clamp	Xenopus oocytes	unit not given	relative to: 1 mM L-glutamate	Imax	0.5 ± 0.05
Nc1ncc(-c2nc(N3CCOCC3)nc(N3CCOCC3)n2)c(C(F)F)n1	Mast/stem cell growth factor receptor Kit (KIT, Homo sapiens, UniProt P10721)	KINOMEscan	–	10 µM	–	remaining binding	20%
Cc1cccc(C(=O)N2CCN(Cc3cccc(NC(=O)c4cccs4)c3)CC2)c1.O=C(O)C(F)(F)F	PFF0160c E182D	enzyme activity, DCIP colorimetric	–	–	relative to: E182D mutant over wild type	IC50 ratio	2.7
CCn1c(-c2nc3cc(C(=O)N4CCC[C@@H](N)C4)cc(OC)c3n2C)cc2cccnc21	Protein-arginine deiminase type-1 (PADI1, Homo sapiens, UniProt Q9ULC6)	–	–	–	relative to: Ki' PAD1 over PAD4	selectivity ratio	24
COc1ccc(N2C(=O)N(c3c(C)cccc3Cl)Cc3cnc(Nc4ccc(C5CCN(C)CC5)cc4OC)nc32)nc1	Dual specificity tyrosine-phosphorylation-regulated kinase 2 (DYRK2, Homo sapiens, UniProt Q92630)	kinase activity	–	0.5 µM	–	inhibition	4.54%
CC[C@H](C)[C@H](NC(=O)CNC(=O)[C@@H](N)CCCCN)C(=O)N[C@@H](CC(C)C)C(=O)N[C@@H](CCCCN)C(=O)N[C@@H](CCCNC(=N)N)C(=O)N[C@@H](CCC(=O)O)C(=O)N[C@@H](CCCCN)C(=O)N[C@@H](CCCNC(=N)N)C(=O)N[C@@H](CC(C)C)C(=O)N[C@@H](CCCNC(=N)N)C(=O)N[C@@H](CCCNC(=N)N)C(=O)N[C@@H](CCCCN)C(=O)N[C@@H](CC(N)=O)C(=O)N[C@H](C(=O)N[C@@H](Cc1c[nH]cn1)C(=O)N[C@@H](Cc1c[nH]c2ccccc12)C(=O)N1CCC[C@H]1C(=O)N[C@@H](CCC(=O)O)C(=O)N[C@@H](CCC(=O)O)C(=O)NCC(=O)N[C@@H](CCCCN)C(=O)N[C@@H](CC(C)C)C(=O)N[C@@H](CCCNC(=N)N)C(=O)N[C@@H](CCC(=O)O)C(=O)N[C@@H](Cc1ccc(O)cc1)C(=O)N[C@@H](Cc1ccccc1)C(=O)N[C@@H](Cc1ccc(O)cc1)C(=O)N[C@@H](Cc1ccccc1)C(=O)N[C@@H](CCC(=O)O)C(=O)N[C@@H](CC(C)C)C(=O)N[C@@H](CC(=O)O)C(=O)N[C@@H](CCC(=O)O)C(=O)N[C@@H](C)C(=O)N[C@@H](CCC(=O)O)C(=O)N[C@@H](CCCNC(=N)N)C(=O)N[C@H](C(=O)N[C@@H](CC(N)=O)C(=O)N[C@H](C(=O)O)C(C)C)C(C)C)C(C)C	protein phosphatase 1 complexes	bead binding, competitive inhibitor, inhibitor bead pulldown LC-MS/MS, item: WDR92	HeLa and HEK293T cells, cell lysate	concentration not given	relative to: compound over control	log2 fold change	-5.22
Cc1ccc(CCn2c3c(c4cc(Cl)ccc42)CN(C)CC3)cn1	ACHE	–	biochemical	concentration not given	–	activity class	inactive

Structure (SMILES)	target	test	system	setting	how to read	quantity	value
CC(=O)N[C@@H](CSCCC=O)C(=O)O	N-acyl-aromatic-L-amino acid amidohydrolase (carboxylate-forming) (Acy3, Mus musculus, UniProt Q91XE4)	substrate, fluorescamine	–	added: Co2+ 0.1 mM	–	kcat	3 s⁻¹
Clc1ccc(Nc2nc3ccccc3c3nc(C4CCCCC4)[nH]c23)cc1Cl	ACHE	–	biochemical	concentration not given	–	activity class	inactive
OC1Cc2ccccc2CC1N1CCC2(C=Cc3ccc(F)cc32)CC1 (racemic)	Vesicular acetylcholine transporter (Rattus norvegicus, UniProt Q62666)	–	–	–	relative to: Ki sigma1 over Ki VAChT	selectivity ratio	0.7
COc1cc(N)c(Cl)cc1C(=O)NC1CN2CCC1CC2 (stereo not shown)	Lysophosphatidic acid receptor 5 (LPAR5, Homo sapiens, UniProt Q9H1C0)	β-arrestin recruitment, TANGO luminescence, item: GPR92	–	concentration not given	relative to: basal luminescence	log2 fold change	-0.156
O=C(Nc1cccnn1)N1CCC(=Cc2cccc(Oc3ccc(C(F)(F)F)cn3)c2)CC1	Prostaglandin F2-alpha receptor (PTGFR, Homo sapiens, UniProt P43088)	radioligand binding, inhibitor	–	10 µM, human, added: [3H]PGF2alpha	–	inhibition	24%
Clc1cc2c(cc1Cl)Oc1cc(Cl)c(Cl)cc1O2	Uncharacterized protein (Takifugu rubripes, UniProt Q4JHL2)	reporter gene, agonist, dual-luciferase	COS-7	0.1 µM, 28 h	relative to: DMSO	fold induction	4.92
CC(=O)NC[C@H]1[C@H](O)[C@H](O)[C@@H]2[C@H](O)C[C@@H](CO)N21	Spodoptera litura β-N-acetylglucosaminidase	–	crude enzyme	0.000784 µM, run 2, added: p-nitrophenyl GlcNAc	–	inhibition	6.39%
O=C(O)COP(=O)(O)O	TPI1 (Saccharomyces cerevisiae, UniProt P00942, S211G/Y208T)	enzyme activity, competitive inhibitor, GPDH/NADH-coupled	–	pH 9.3, 25 °C, ionic strength 0.1 NaCl, added: glyceraldehyde 3-phosphate substrate	relative to: mutant over wild type	Ki ratio	7.6
CC(Oc1cccc(Cl)c1)C(=O)N1CCc2ccccc21 (stereo not shown)	PFF0160c E182D	enzyme activity, DCIP colorimetric	–	–	relative to: E182D mutant over wild type	IC50 ratio	0.3
CN1CCN(c2cc(-c3ccncc3)c(-c3ccc4ccccc4c3)nn2)CC1	C-C chemokine receptor type 6 (CCR6, Homo sapiens, UniProt P51684)	agonist, FLIPR	–	12.5 µM	–	activation	3%
CCOC(=O)COc1ccc2c(=O)c3ccccc3oc2c1	Acetylcholinesterase (ache, Electrophorus electricus, UniProt O42275)	enzyme activity	–	0.84 µM, added: substrate 3.45 mM	higher = faster reaction	reaction velocity	0.0027 a.u.
O=C(c1ccc(Cl)cc1)N1CCN2C(=O)N(OC(=O)N3CCOc4ccccc43)C(=O)C2C1 (stereo not shown)	Phospholipase A1 member A (PLA1A, Homo sapiens, UniProt Q53H76)	enzyme activity, inhibitor, MS-based ABPP	SW-620 conditioned medium	10 µM, 1 h, 37 °C	relative to: compound over DMSO, lower = stronger inhibition	median ratio	0.7
C[C@H]1CN(c2n[nH]c3nc(N[C@H]4CC[C@H](NS(=O)(=O)CCC(F)(F)F)CC4)ncc23)CCO1	Lysine--tRNA ligase (KARS1, Homo sapiens, UniProt Q15046)	Kinobeads competition, item: KARS	–	0.8 µM, unit not given	relative to: vehicle	remaining binding	1.14
COc1ccc(Nc2nn3c(-c4ccccc4)ccnc3c2C(=O)Nc2ccccc2)cc1	α-amylase isoenzymes	native PAGE densitometry, item: α-amy2 band	–	equal to IC50	–	band share	100%
Oc1ccc2ccc3cccc4ccc1c2c34	Aryl hydrocarbon receptor (Danio rerio, UniProt Q9YGV3)	reporter gene, agonist, luciferase reporter	ZF-4	1111.11 µM	relative to: vehicle control	fold change	1.66
[2H]c1c([2H])c([C@]2([2H])CCCN2C(=O)C(C)(C)Oc2ccc3cn[nH]c3c2)c([2H])c([2H])c1C([2H])([2H])[2H]	Serine/threonine-protein kinase haspin (HASPIN, Homo sapiens, UniProt Q8TF76)	KINOMEscan	–	1 µM	relative to: DMSO control	remaining binding	72%
COc1ccc2c3c([nH]c2c1)CCN(C)CC3.O=C(O)/C=C/C(=O)O	Neuronal acetylcholine receptor subunit alpha-7 (CHRNA7, Homo sapiens, UniProt P36544)	ion current, inhibitor, two-electrode voltage clamp	Xenopus laevis oocytes	10 µM, human receptor, added: acetylcholine 100 µM	–	recovery time constant	8.6 s
O=C1c2ccccc2C(=O)C1c1ccccc1	Bile acid receptor (NR1H4, Homo sapiens, UniProt Q96RI1)	–	cells	concentration not given	–	activity	inactive
